{"data": "Measured values gathered from unrelated publications", "note": "Numbered parts are unrelated; each lists some results of a single study. Changes are numbered by the printed parent chain."}
{"data": "Series 1", "target": "ABI1, truncated, D143A, DHFR fusion (Arabidopsis thaliana)", "method": "DHFR PCA, deep sequencing", "medium": "yeast", "setting": "methotrexate growth selection, single substitutions", "added": "(+)-ABA 2500 µM", "baseline": "wild-type fitted maximum", "direction": "higher = stronger binding", "starting sequence": "PYL1, truncated, DHFR fusion (Arabidopsis thaliana); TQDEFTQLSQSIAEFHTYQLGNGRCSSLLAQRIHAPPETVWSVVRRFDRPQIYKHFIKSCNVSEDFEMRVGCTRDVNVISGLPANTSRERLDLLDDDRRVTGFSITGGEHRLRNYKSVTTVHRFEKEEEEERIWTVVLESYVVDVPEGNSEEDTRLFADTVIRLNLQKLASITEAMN"}
{"Change": "D95R", "relative binding score [%]": 88.8}
{"Change": "T17F", "relative binding score [%]": 90.2}
{"Change": "V121Y", "relative binding score [%]": 2.45}
{"Change": "K168G", "relative binding score [%]": 95.1}
{"Change": "S42Y", "relative binding score [%]": 86.5}
{"Change": "L138F", "relative binding score [%]": 109}
{"Change": "S104F", "relative binding score [%]": 80.5}
{"Change": "F157Y", "relative binding score [%]": 95.9}
{"Change": "D48L", "relative binding score [%]": 36.5}
{"Change": "D159T", "relative binding score [%]": 86.6}
{"Change": "F124T", "relative binding score [%]": 98.5}
{"Change": "F56N", "relative binding score [%]": 43.6}
{"Change": "T160C", "relative binding score [%]": 95.4}
{"Change": "S150Y", "relative binding score [%]": 82.8}
{"data": "Series 2", "target": "CCND1, cyclin fold, Cln2 fusion (human)", "method": "yeast growth competition, sequencing", "medium": "yeast", "setting": "strong parent motif", "baseline": "not given", "direction": "higher = stronger binding", "starting sequence": "SCAPER docking peptide (human); SNARRSLNFGGST"}
{"Change": "R5Y", "normalised enrichment score": 0.414}
{"Change": "G10L", "normalised enrichment score": 0.377}
{"Change": "N2F", "normalised enrichment score": 1.39}
{"Change": "N8Q", "normalised enrichment score": 0.369}
{"Change": "N8H", "normalised enrichment score": 0.955}
{"Change": "N2P", "normalised enrichment score": 1.17}
{"Change": "F9S", "normalised enrichment score": 0.107}
{"Change": "A3D", "normalised enrichment score": 0.0477}
{"Change": "G11S", "normalised enrichment score": 1.14}
{"Change": "S1Q", "normalised enrichment score": 0.547}
{"Change": "S12P", "normalised enrichment score": 1.85}
{"Change": "S12Q", "normalised enrichment score": 0.606}
{"Change": "N2L", "normalised enrichment score": 0.361}
{"Change": "G10N", "normalised enrichment score": 0.263}
{"Change": "T13C", "normalised enrichment score": 1.2}
{"Change": "R4P", "normalised enrichment score": 0.186}
{"Change": "S12T", "normalised enrichment score": 0.951}
{"Change": "S12Y", "normalised enrichment score": 0.844}
{"Change": "S6A", "normalised enrichment score": 2.59}
{"Change": "G10E", "normalised enrichment score": 0.81}
{"Change": "F9V", "normalised enrichment score": -0.102}
{"Change": "R5G", "normalised enrichment score": 0.361}
{"data": "Series 3", "target": "Interferon regulatory factor 3, full length, phosphomimetic (IRF3, Homo sapiens, UniProt Q14653, residues 1-427, S386D/S396D/S398D/S402D/T404D/S405D)", "method": "protein-binding microarray", "form": "double-stranded DNA, one strand shown", "medium": "in vitro", "tested at": "2540 nM top", "setting": "60-bp whole probe", "added": "salmon DNA 0.4 mg/ml", "baseline": "random background probes", "direction": "higher = stronger binding", "constant ends, left off below": "GCCTAGCAC … GTCTTGATTCGCTTGACGCTGCTG", "Residues (chain)": "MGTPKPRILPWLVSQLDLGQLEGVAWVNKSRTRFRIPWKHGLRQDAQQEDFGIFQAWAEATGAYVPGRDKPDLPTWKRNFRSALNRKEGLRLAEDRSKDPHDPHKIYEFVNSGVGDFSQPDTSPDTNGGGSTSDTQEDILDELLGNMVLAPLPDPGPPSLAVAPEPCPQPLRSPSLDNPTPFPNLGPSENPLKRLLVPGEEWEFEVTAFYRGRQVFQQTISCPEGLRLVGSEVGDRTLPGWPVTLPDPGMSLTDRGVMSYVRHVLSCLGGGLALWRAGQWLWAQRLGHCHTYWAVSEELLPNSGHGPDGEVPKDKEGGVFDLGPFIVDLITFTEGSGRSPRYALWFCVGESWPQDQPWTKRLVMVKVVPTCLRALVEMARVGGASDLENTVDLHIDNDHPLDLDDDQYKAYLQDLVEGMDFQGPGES"}
{"Strand": "TTAGGTTTCCTGCTCCTTTAGTGCTAG", "fitted relative affinity [z-score]": 3.36}
{"Strand": "TCATATATCTTATCCTAACTGTGCTAG", "fitted relative affinity [z-score]": 1.33}
{"Strand": "GACGGACTGGGATTTCGGGACGTGCTA", "fitted relative affinity [z-score]": -0.415}
{"Strand": "AACGGTCTCCTTCTCCTGACGTGCTAG", "fitted relative affinity [z-score]": 4}
{"Strand": "GACGGACTGGGACTGGGGATGTGCTAG", "fitted relative affinity [z-score]": -0.985}
{"Strand": "TTAGATTTCGGGGCTGGATTAGTGCTA", "fitted relative affinity [z-score]": 0.297}
{"Strand": "GTCATTTTCTCTTATTCTAAGTGCTAG", "fitted relative affinity [z-score]": 2.76}
{"Strand": "GACGGTGTCGACACTGGGGACGTGCTA", "fitted relative affinity [z-score]": 0.55}
{"Strand": "GACGATATCGAGACTGGAGACGTGCTA", "fitted relative affinity [z-score]": 0.119}
{"Strand": "TGAGATCTCAGTTTCGATTAGTGCTAG", "fitted relative affinity [z-score]": 3.53}
{"Strand": "TTAGGTATCGGGTTTAGGTTAGTGCTA", "fitted relative affinity [z-score]": 1.96}
{"Strand": "TCAAAATTAGTGTTTGCCACTGTGCTA", "fitted relative affinity [z-score]": -0.414}
{"Strand": "GACGATCTCAGACAGGAGACGTGCTAG", "fitted relative affinity [z-score]": 0.292}
{"Strand": "TTAGGTCTCCTACTGCTATAGTGCTAG", "fitted relative affinity [z-score]": 0.966}
{"Strand": "CGCTTTTTTTTTTTTTTTTTGTGCTAG", "fitted relative affinity [z-score]": 0.875}
{"Strand": "TCAATTTTTACCCTCCTACTGTGCTAG", "fitted relative affinity [z-score]": 0.654}
{"data": "Series 4", "target": "Histone acetyltransferase KAT6A, winged helix 2, GST fusion (KAT6A, Homo sapiens, UniProt Q92794, residues 85-181)", "method": "protein binding microarray", "form": "double-stranded DNA, one strand shown", "medium": "in vitro", "tested at": "not given", "setting": "8-mer, flanks averaged, mean of 2 arrays, mostly near background", "baseline": "not given", "direction": "higher = stronger binding", "Construct (chain)": "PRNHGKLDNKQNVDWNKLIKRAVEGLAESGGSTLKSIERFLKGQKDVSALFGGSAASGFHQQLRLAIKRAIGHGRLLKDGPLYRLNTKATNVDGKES"}
{"Strand": "AGCATTGC", "E-score": 0.0822}
{"Strand": "GGCAAGAA", "E-score": 0.185}
{"Strand": "CACGCTTA", "E-score": -0.0384}
{"Strand": "CAACAATC", "E-score": 0.019}
{"Strand": "AAGTAGTA", "E-score": -0.122}
{"Strand": "GCGCATAC", "E-score": 0.0204}
{"Strand": "ACTCGCAG", "E-score": 0.0864}
{"Strand": "CCACCCAC", "E-score": 0.0231}
{"Strand": "AATTGTCA", "E-score": 0.123}
{"Strand": "AGGTATCC", "E-score": 0.0499}
{"Strand": "ATCCCCGC", "E-score": 0.187}
{"Strand": "CTCTTAAG", "E-score": -0.0783}
{"Strand": "AATAGACC", "E-score": -0.0153}
{"Strand": "ACATCGGG", "E-score": -0.0583}
{"Strand": "AAATCAGG", "E-score": -0.0336}
{"Strand": "CAGAAGGA", "E-score": 0.0314}
{"Strand": "ACGCTTTA", "E-score": -0.0658}
{"Strand": "AACATCCG", "E-score": 0.0783}
{"Strand": "GAGTGTCA", "E-score": 0.0902}
{"Strand": "ATGGTAGA", "E-score": -0.179}
{"Strand": "CCACGCCG", "E-score": 0.2}
{"Strand": "ATGTTTAG", "E-score": -0.024}
{"Strand": "TATACTGA", "E-score": 0.189}
{"note": "For quick reference, copied from above (series 1):"}
{"Change": "L138F", "relative binding score [%]": 109}
{"Change": "S104F", "relative binding score [%]": 80.5}
{"Change": "F157Y", "relative binding score [%]": 95.9}
{"Change": "D48L", "relative binding score [%]": 36.5}
{"Change": "D159T", "relative binding score [%]": 86.6}
{"Change": "F124T", "relative binding score [%]": 98.5}
{"Change": "F56N", "relative binding score [%]": 43.6}
{"Change": "T160C", "relative binding score [%]": 95.4}
{"Change": "S150Y", "relative binding score [%]": 82.8}
